Measured values gathered from unrelated publications.
Every numbered part comes from another study and shows a few of its results, in no order.
Sequence of UniProt Q5XXA6 (whole entry, unmodified, looked up): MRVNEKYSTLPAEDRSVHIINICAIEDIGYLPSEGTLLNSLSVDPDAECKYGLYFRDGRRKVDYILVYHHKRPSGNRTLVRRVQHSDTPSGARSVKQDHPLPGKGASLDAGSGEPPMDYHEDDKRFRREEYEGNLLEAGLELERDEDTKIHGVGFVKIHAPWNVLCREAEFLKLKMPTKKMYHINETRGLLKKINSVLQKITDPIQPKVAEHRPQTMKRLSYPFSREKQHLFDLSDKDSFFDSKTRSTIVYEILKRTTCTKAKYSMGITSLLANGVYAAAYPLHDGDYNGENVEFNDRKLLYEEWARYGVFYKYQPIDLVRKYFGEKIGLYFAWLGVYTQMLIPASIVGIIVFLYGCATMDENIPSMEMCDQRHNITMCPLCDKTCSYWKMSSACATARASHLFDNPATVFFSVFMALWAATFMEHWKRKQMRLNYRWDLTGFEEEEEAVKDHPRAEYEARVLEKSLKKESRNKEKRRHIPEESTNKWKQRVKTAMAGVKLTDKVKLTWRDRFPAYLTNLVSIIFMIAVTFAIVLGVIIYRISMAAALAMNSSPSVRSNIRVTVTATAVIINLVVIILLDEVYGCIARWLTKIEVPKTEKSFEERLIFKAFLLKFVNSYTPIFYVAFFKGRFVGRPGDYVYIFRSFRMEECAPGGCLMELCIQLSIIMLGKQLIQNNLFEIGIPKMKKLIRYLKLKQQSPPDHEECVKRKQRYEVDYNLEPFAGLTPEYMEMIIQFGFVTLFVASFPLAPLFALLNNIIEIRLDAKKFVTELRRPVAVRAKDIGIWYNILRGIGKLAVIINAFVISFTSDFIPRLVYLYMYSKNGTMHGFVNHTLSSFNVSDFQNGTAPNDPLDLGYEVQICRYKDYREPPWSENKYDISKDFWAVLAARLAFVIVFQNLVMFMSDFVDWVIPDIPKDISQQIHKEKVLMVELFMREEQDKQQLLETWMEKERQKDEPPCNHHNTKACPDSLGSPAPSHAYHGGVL

Set 1 — method: protein-binding microarray; molecule type: double-stranded DNA, one strand shown; medium: in vitro; concentration: 250 nM; setting: 60-bp whole probe; together with: salmon DNA 0.4 mg/ml; baseline: random background probes; direction: higher = stronger binding; constant ends, left off below: GCCTAGCAC … GTCTTGATTCGCTTGACGCTGCTG
Target: Interferon regulatory factor 7, full length, phosphomimetic (IRF7, Homo sapiens, UniProt Q92985, residues 1-503, S101K/S471D/S472D/S475D/S476D/S477D/S483D/S484D/S487D)
Residues (chain): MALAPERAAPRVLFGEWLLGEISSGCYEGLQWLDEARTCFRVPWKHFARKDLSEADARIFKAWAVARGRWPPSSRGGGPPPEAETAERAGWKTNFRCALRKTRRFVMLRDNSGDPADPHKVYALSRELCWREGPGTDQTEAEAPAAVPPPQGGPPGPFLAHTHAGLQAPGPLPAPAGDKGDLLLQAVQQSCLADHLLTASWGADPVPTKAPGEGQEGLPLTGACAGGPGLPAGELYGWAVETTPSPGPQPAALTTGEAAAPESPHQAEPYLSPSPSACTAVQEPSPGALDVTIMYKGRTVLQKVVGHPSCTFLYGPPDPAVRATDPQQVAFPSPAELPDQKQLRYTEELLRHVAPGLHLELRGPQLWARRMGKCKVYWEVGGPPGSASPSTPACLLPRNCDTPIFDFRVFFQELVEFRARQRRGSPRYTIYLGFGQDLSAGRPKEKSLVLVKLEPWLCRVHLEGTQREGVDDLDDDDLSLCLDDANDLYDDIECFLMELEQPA
Sequence | log fluorescence [z-score]
GACGAACTGGGGTTTCGGGACGTGCTA | 1.18
GACAATATCGGGTTTCGAGACGTGCTA | 3.46
CTAGGTTTCCTTTTCCTTTAGTGCTAG | 7.16
CCAGTTTTCTTTTCATTACTGTGCTAG | 4.78
GACGGACTGGACTTTGGGGACGTGCTA | -0.771
GTCGATTTCGGGTATCGAGACGTGCTA | 1.66
AGGACTCTGGAGGTTGAGAAAGTGCTA | -0.791
TCATCTTTCACTGGTCCTACTGTGCTA | 0.706

Set 2 — method: RNA Bind-n-Seq; molecule type: RNA; medium: in vitro; concentration: 90 pmol; setting: 4-mer, random 30-nt RNA, single round; together with: 3 µM DMDA-PatA, 2 mM ADP, 2 mM phosphate; baseline: input library; direction: higher = stronger binding
Target: ATP-dependent RNA helicase DDX3X, helicase core (DDX3X, Homo sapiens, UniProt O00571, residues 132-607)
Sequence of UniProt O00571 (132-607, looked up): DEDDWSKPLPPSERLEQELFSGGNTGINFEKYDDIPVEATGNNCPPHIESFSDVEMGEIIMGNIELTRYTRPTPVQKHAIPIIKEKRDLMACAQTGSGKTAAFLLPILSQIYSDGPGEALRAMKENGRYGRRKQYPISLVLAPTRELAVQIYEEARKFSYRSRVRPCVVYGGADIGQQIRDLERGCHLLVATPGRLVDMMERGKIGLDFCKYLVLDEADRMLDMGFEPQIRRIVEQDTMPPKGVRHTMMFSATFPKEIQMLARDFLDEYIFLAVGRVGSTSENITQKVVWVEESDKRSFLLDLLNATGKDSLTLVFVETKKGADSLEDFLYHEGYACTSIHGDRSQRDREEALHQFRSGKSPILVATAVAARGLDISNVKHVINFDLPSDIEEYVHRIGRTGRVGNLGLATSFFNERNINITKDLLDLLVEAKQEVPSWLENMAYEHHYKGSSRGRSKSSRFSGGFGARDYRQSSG
Sequence | 4-mer enrichment [fold]
CCCU | 1.03
AUCG | 0.882
CGAG | 1.2
UCUU | 0.81
UGCC | 0.851
GUGG | 1.15
AUUA | 1.01
CCUU | 0.831

Set 3 — method: RNA Bind-n-Seq; molecule type: RNA; medium: in vitro; concentration: 365 nM; baseline: no-protein control; direction: higher = stronger binding
Target: RNA binding protein fox-1 homolog 2, RRM domain, GST-SBP tag (RBFOX2, Homo sapiens, UniProt O43251-10, residues 100-194)
Setting: natural RNA segment, single round, ends assumed
Construct (chain): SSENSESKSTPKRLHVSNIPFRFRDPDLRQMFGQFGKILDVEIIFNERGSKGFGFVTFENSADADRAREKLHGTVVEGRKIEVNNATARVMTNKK
Sequence | RBNS enrichment (R)
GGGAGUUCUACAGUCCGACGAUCGAAUGUAAUACUCAAACUCUCAGUGCUUCCUUAUAAUUUCUAAUAGAAUUUUUUAUUAUUGUUAUUAUUAUUGGGGUUUUUUUGGUUGGUUGGUUGGUUGGUCGGGUUUUUGGAAUUCUCGGGUGCCAA | 1.05
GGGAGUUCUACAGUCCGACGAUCCGGAGGGUACCUCCUGUUCCCUGUCUGAGCAUCCUGCAUGGAAGUCAAAGGAAAUCCCUUUCUUGGUGACGACUUAAAUCUGGGUUCCCUCAGACAUUGGGUUGCACCCCUGGAAUUCUCGGGUGCCAA | 0.349
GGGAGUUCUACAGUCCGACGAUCAAAAUGCCUUUUUUGGAAGGACUAACAGAAAGCACCUGAUUUGCACUUGAACCAGAUUAUAGAUUUAAAAGUAUAUGACAUGUAUUUUGUAUUUAAAACUAGAAUAGCCAUGGAAUUCUCGGGUGCCAA | 0.722
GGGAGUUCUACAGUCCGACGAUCGGUGAAGGAAAGCAAGCUCACCGCCUGAACACGGAGAUUGUCUUUCUGCCACAGAACAGCAGCAGACGUGUCGGGAGGUUAGCUGCGGAAAGAAAUCGGGAUGCCGCGGAUGGAAUUCUCGGGUGCCAA | 0.295
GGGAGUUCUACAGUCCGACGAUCCACAACAACGGAAGGAACAGAAGAAAAAACACAAGCGCAAGUGAGCAGAAUUGUCUGGAAAGACUGAAGGACAGAGAGGGAGGUGUACAGUUCUCUCUGGAGGCUUUGUGUGGAAUUCUCGGGUGCCAA | 1.12
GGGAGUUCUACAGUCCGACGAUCACCUUGCUGGGGUGGGGUGCCACCUCCAGUGGCCAGCUCCAGAUCCAAGGAGCAGCCCCCUGGGGAUGGACCCCAUUCAUUCAUCAUGACUCCCAACAGUUUUCAUUGUGUGGAAUUCUCGGGUGCCAA | 0.185
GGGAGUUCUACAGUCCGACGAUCAGUUACCUUCUGGGCAAAGGCUGCCUUCCCACCCUUCCUUUCACGGCACCACACUACAUCCCCAUGCCCCUGUGGAAGUCUGUUACUGCAGCACUGUGCCUGCCAGAGUUUGGAAUUCUCGGGUGCCAA | 0.385
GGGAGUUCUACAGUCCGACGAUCCGUUUGGCGCUGUUGUAUGGUGUGAUUGUCAGUGUAUGGUGUCACUUCCUAUAGCCAGCCAGCAUACUUUGCCUUCCCCUAUAGCACUUAGCUGGGCAUUACUUUAUUAUUGGAAUUCUCGGGUGCCAA | 0.555

Single results of other studies
SMILES | target | observed | method | setting | quantity | value
C=CCc1ccc(O)c(-c2cc(CC=C)ccc2O)c1 | Anoctamin-1 (ANO1, Homo sapiens, UniProt Q5XXA6, del476-501/F646A) | chloride current | whole-cell voltage clamp | membrane voltage 20 mV | IC50 | 19 µM

For quick reference, copied from above (set 1):
Sequence | log fluorescence [z-score]
GTCGATTTCGGGTATCGAGACGTGCTA | 1.66
CCAGTTTTCTTTTCATTACTGTGCTAG | 4.78
AGGACTCTGGAGGTTGAGAAAGTGCTA | -0.791
